Measurements collected from several papers.
Lines come from different studies, so protocols differ. ± gives the spread as reported.
B1: GAB1 331-530 (Homo sapiens, UniProt Q13480); sequence looked up; chain TSKLDTIPDIPPPRPPKPHPAHDRSPVETCSIPRTASDTDSSYCIPTAGMSPSRSNTISTVDLNKLRKDASSQDCYDIPRAFPSDRSSSLEGFHNHFKVKNVLTVGSVSSEELDENYVPMNPNSPPRQHSSSFTEPIQEANYVPMTPGTFDFSSFGMQVPPPAHMGFRSSPKTPPRRPVPVADCEPPPVDRNLKPDRKVK
B2: PI4KB V434G (Homo sapiens, UniProt Q9UBF8-2); sequence looked up; chain MGDTVVEPAPLKPTSEPTSGPPGNNGGSLLSVITEGVGELSVIDPEVAQKACQEVLEKVKLLHGGVAVSSRGTPLELVNGDGVDSEIRCLDDPPAQIREEEDEMGAAVASGTAKGARRRRQNNSAKQSWLLRLFESKLFDISMAISYLYNSKEPGVQAYIGNRLFCFRNEDVDFYLPQLLNMYIHMDEDVGDAIKPYIVHRCRQSINFSLQCALLLGAYSSDMHISTQRHSRGTKLRKLILSDELKPAHRKRELPSLSPAPDTGLSPSKRTHQRSKSDATASISLSSNLKRTASNPKVENEDEPVRLAPEREFIKSLMAIGKRLATLPTKEQKTQRLISELSLLNHKLPARVWLPTAGFDHHVVRVPHTQAVVLNSKDKAPYLIYVEVLECENFDTTSVPARIPENRIRSTRSVENLPECGITHEQRAGSFSTGPNYDNDDEAWSVDDIGELQVELPEVHTNSCDNISQFSVDSITSQESKEPVFIAAGDIRRRLSEQLAHTPTAFKRDPEDPSAVALKEPWQEKVRRIREGSPYGHLPNWRLLSVIVKCGDDLRQELLAFQVLKQLQSIWEQERVPLWIKPYKILVISADSGMIEPVVNAVSIHQVKKQSQLSLLDYFLQEHGSYTTEAFLSAQRNFVQSCAGYCLVCYLLQVKDRHNGNILLDAEGHIIHIDFGFILSSSPRNLGFETSAFKLTTEFVDVMGGLDGDMFNYYKMLMLQGLIAARKHMDKVVQIVEIMQQGSQLPCFHGSSTIRNLKERFHMSMTEEQLQLLVEQMVDGSMRSITTKLYDGFQYLTNGIM
B3: SAG del76 (Bos taurus, UniProt P08168); sequence looked up; chain MKANKPAPNHVIFKKISRDKSVTIYLGKRDYIDHVERVEPVDGVVLVDPELVKGKRVYVSLTCAFRYGQEDIDVMLSFRRDLYFSQVQVFPPVGASGATTRLQESLIKKLGANTYPFLLTFPDYLPCSVMLQPAPQDVGKSCGVDFEIKAFATHSTDVEEDKIPKKSSVRLLIRKVQHAPRDMGPQPRAEASWQFFMSDKPLRLAVSLSKEIYYHGEPIPVTVAVTNSTEKTVKKIKVLVEQVTNVVLYSSDYYIKTVAAEEAQEKVPPNSSLTKTLTLVPLLANNRERRGIALDGKIKHEDTNLASSTIIKEGIDKTVMGILVSYQIKVKLTVSGLLGELTSSEVATEVPFRLMHPQPEDPDTAKESFQDENFVFEEFARQNLKDAGEYKEEKTDQEAAMDE
B4: LMNB1 (Homo sapiens, UniProt P20700); sequence looked up; chain MATATPVPPRMGSRAGGPTTPLSPTRLSRLQEKEELRELNDRLAVYIDKVRSLETENSALQLQVTEREEVRGRELTGLKALYETELADARRALDDTARERAKLQIELGKCKAEHDQLLLNYAKKESDLNGAQIKLREYEAALNSKDAALATALGDKKSLEGDLEDLKDQIAQLEASLAAAKKQLADETLLKVDLENRCQSLTEDLEFRKSMYEEEINETRRKHETRLVEVDSGRQIEYEYKLAQALHEMREQHDAQVRLYKEELEQTYHAKLENARLSSEMNTSTVNSAREELMESRMRIESLSSQLSNLQKESRACLERIQELEDLLAKEKDNSRRMLTDKEREMAEIRDQMQQQLNDYEQLLDVKLALDMEISAYRKLLEGEEERLKLSPSPSSRVTVSRASSSRSVRTTRGKRKRVDVEESEASSSVSISHSASATGNVCIEEIDVDGKFIRLKNTSEQDQPMGGWEMIRKIGDTSVSYKYTSRYVLKAGQTVTIWAANAGVTASPPTDLIWKNQNSWGTGEDVKVILKNSQGEEVAQRSTVFKTTIPEEEEEEEEAAGVVVEEELFHQQGTPRASNRSCAIM
B5: fbf-2 121-632 I480A (Caenorhabditis elegans, UniProt Q09312); sequence looked up; chain DFSQNVRCFSADIDRSKSYGSSKHYHLKYSRPALSRNSRSFTRSNNVLPTWSLDSNGEMRSRLSLSEVLDSGDLMKFAVDKTGCQFLEKAVKGSLTSYQKFQLFEQVIGRKDDFLKLSTNIFGNYLVQSVIGISLATNDDGYTKRQEKLKNFISSQMTDMCLDKFACRVIQSSLQNMDLSLACKLVQALPRDARLIAICVDQNANHVIQKVVAVIPLKNWEFIVDFVATPEHLRQICSDKYGCRVVQTIIEKLTADSMNVDLTSAAQNLRERALQRLMTSVTNRCQELATNEYANYIIQHIVSNDDLAVYRECIIEKCLMRNLLSLSQEKFASHVVEKAFLHAPLELLAEMMDEIFDGYAPHPDTGKDALDIMMFHQFGNYVVQCMLTICCDAVSGRRQTKEGGYDHAISFQDWLKKLHSRVTKERHRLSRFSSGKKMIETLANLRSTHPIYELQSSGHDSFKTDYFSTASEHDGPELEKNGIEEGSLMLEPRSNKSSVSVKFSSSGSHGDD
B6: CX3CL1 25-100 (Homo sapiens, UniProt P78423); sequence looked up; chain QHHGVTKCNITCSKMTSKIPVALLIHYQQNQASCGKRAIILETRQHRLFCADPKEQWVKDAMQHLDRQAAALTRNG
B7: lat-1 32-136 F69A (Caenorhabditis elegans, UniProt G5EDW2); chain TTDESGTISHTICDGEAAELSCPAGKVISIVLGNYGRASVAVCLPDNDIVPSNINCQNHKTKSILEKKCNGDSMCYFTVDKKTFTEDPCPNTPKYLEVKYNCVVP

Molecule = LGQSMDESGLPQLTSYDCEVNAPIQGSRNLLQGEELLRALDQVN (HIF1A CTAD (Homo sapiens, UniProt Q16665)); partner = EP300 CH1 (Homo sapiens); test = FP competition; test system = peptide; endpoint = Ki; value = 280 nM
Molecule = SLC4A1 (Homo sapiens, UniProt P02730); partner = HBB (Homo sapiens, UniProt P68871); test = cross-linking MS; setting = added: DSSO or DMTMM; endpoint = cross-linked residues; value = D23 to K9
Molecule = FGB (Homo sapiens, UniProt P02675); partner = RAD54L (Homo sapiens, UniProt Q92698); test = cross-linking MS; setting = added: DSSO; endpoint = cross-linked residues; value = K77 to K550
Molecule = B1 (GAB1 331-530); partner = GRB2 (Homo sapiens, UniProt P62993); test = ITC; endpoint = binding enthalpy; value = -34.3 kcal/mol
Molecule = PSPHGTRRHLPSPP (SOS1 proline-rich peptide, 1264-1277); partner = GRB2 1-58 (Homo sapiens, UniProt P62993); test = NMR titration; test system = peptide; endpoint = chemical shift perturbation; value = 0.14 ppm
Molecule = SUPT4H1/SUPT5H, Cy3-labelled Spy tag (Homo sapiens) (sequence not shown); partner = RNA polymerase II elongation complex, P-TEFb phosphorylated (Sus scrofa); test = single-molecule fluorescence colocalisation; setting = phosphorylated; endpoint = residence time; value = 182 s
Molecule = B2 (PI4KB V434G); partner = RAB11A (Homo sapiens, UniProt P62491); test = co-IP; test system = HEK-293T; scale = relative to: wild type, higher = more binding; endpoint = relative binding; value = 3.6 fold
Molecule = SIRPA IgV domain-Fc fusion, bivalent (Homo sapiens); partner = CD47 (Homo sapiens, UniProt Q08722); test = flow cytometry; test system = H9; setting = 30 min, apparent, bivalent; endpoint = EC50; value = 62.6 nM
Molecule = DYNC1H1 (Homo sapiens, UniProt Q14204); partner = NUMA1 1-705 (Homo sapiens, UniProt Q14980); test = time-lapse imaging; test system = Flp-In T-REx mitotic; setting = CDK1 inhibition, added: RO3306; endpoint = cortical dynein loss half-time; value = 13.7 min
Molecule = B3 (SAG del76); partner = RHO light-activated, phosphorylated (Bos taurus, UniProt P02699); test = gel filtration; scale = relative to: unchanged protein, lower = less binding; endpoint = relative binding; value = < 30%
Molecule = PDE4D3/GFP (Homo sapiens); partner = AKAP6 (Homo sapiens, UniProt Q13023-1); test = co-IP; test system = HEK293; setting = without stimulation, not purified; scale = relative to: mAKAP precipitated, higher = more PDE4D3 bound; endpoint = relative binding; value = 2.85
Molecule = NGVTKTILEARARVEKDYGK (gld-3 860-879 P869A (Caenorhabditis elegans, UniProt Q95ZK7); sequence looked up); partner = fbf-2 164-575 (Caenorhabditis elegans, UniProt Q09312); test = fluorescence polarisation; test system = peptide; scale = relative to: wild-type GLD-3, higher = weaker competition; endpoint = competition; value = 2 fold
Molecule = FGG (Homo sapiens, UniProt P02679); partner = ATP2B3 (Homo sapiens, UniProt Q16720); test = cross-linking MS; setting = added: DSSO; endpoint = cross-linked residues; value = K231 to K754
Molecule = NOP56 (Homo sapiens, UniProt O00567); partner = FBL (Homo sapiens, UniProt P22087); test = cross-linking MS; test system = cells; setting = added: iqPIR; endpoint = cross-linked residues; value = K158 to K222
Molecule = medin (Homo sapiens, UniProt Q08431); partner = amyloid-β fragment; test = Thioflavin T fluorescence; setting = 20 µM, equimolar mixture; scale = higher = slower aggregation; endpoint = lag time; value = 6.5 h
Molecule = Putative uncharacterized protein ENSP00000382790 (Homo sapiens, UniProt A8MVM7); partner = TF (Homo sapiens, UniProt P02787); test = cross-linking MS; setting = added: DSSO; endpoint = cross-linked residues; value = K13 to K310
Molecule = QARS1 (Homo sapiens, UniProt P47897); partner = FLOT2 (Homo sapiens, UniProt Q14254); test = cross-linking MS; test system = cells; setting = added: iqPIR; endpoint = cross-linked residues; value = K366 to K421
Molecule = MCM2 (Saccharomyces cerevisiae, UniProt P29469); partner = ORC6 (Saccharomyces cerevisiae, UniProt P38826); test = cross-linking MS; setting = hits only; endpoint = interaction screen; value = cross-linked
Molecule = DYNLRB1/DYNLL1/DYNLT1/DYNC1LI2/DYNC1I2/DYNC1H1 dynein-1 complex (Homo sapiens); partner = HOOK3/BICD2 chimera Hook3 CC, BicD2 LIC-BD 1-160, HaloTag; test = pull-down; endpoint = Ka; value = < 1.6e+06 M⁻¹
Molecule = B4 (LMNB1); partner = ESPL1 (Homo sapiens, UniProt Q14674); test = proximity ligation; test system = SV40 fibroblasts; setting = overexpressed untagged WT lamin B1; scale = relative to: control cells, higher = stronger signal; endpoint = PLA signal intensity; value = 2.5 fold
Molecule = B5 (fbf-2 121-632 I480A); partner = gld-3 850-900 (Caenorhabditis elegans, UniProt Q95ZK7); test = LacZ luminescence, yeast two-hybrid; scale = relative to: wild-type FBF-2, higher = lower activity; endpoint = LacZ activity decrease; value = 120 fold
Molecule = ADCYAP1 PACAP (Homo sapiens); partner = VIPR1 (Homo sapiens, UniProt P32241); test = cAMP accumulation, antagonist; test system = Cos7; setting = VPAC1, added: VIP; endpoint = pA2; value = 933 nM
Molecule = B6 (CX3CL1 25-100); partner = CX3CR1 (Homo sapiens, UniProt P49238-4); test = AlphaScreen or HTRF; endpoint = Ki; value = 0.15 nM
Molecule = alpha-MSH mature (UniProt P01189); partner = Mc1r (Mus musculus, UniProt Q01727); test = cAMP production, agonist, BRET EPAC sensor; test system = HEK293; setting = 3 min; endpoint = EC50; value = 4.8 nM
Molecule = PKMYT1 (Homo sapiens, UniProt Q99640); partner = CCNE1 low molecular weight form (Homo sapiens); test = affinity purification mass spectrometry; test system = HEK293T; scale = relative to: FL-cycE, higher = more binding; endpoint = relative binding; value = 5.8 fold
Molecule = FGA (Homo sapiens, UniProt P02671); partner = ANO3 (Homo sapiens, UniProt Q9BYT9); test = cross-linking MS; setting = added: DSSO; endpoint = cross-linked residues; value = K463 to K317
Molecule = EEF2K, pT348 (UniProt O00418); partner = CALM1 (Homo sapiens, UniProt P0DP23); test = AlphaScreen or HTRF; endpoint = IC50; value = 0.78 ± 0.044 nM
Molecule = ALB (Homo sapiens, UniProt P02768); partner = SPINK5 (Homo sapiens, UniProt Q9NQ38); test = cross-linking MS; setting = added: DSSO; endpoint = cross-linked residues; value = K223 to K266
Molecule = B7 (lat-1 32-136 F69A); partner = tol-1 extracellular region (Caenorhabditis elegans); test = SPR; scale = relative to: wild type, higher = weaker binding; endpoint = relative binding affinity; value = > 1000 fold

Excerpt of the above:
Molecule = NGVTKTILEARARVEKDYGK (gld-3 860-879 P869A (Caenorhabditis elegans, UniProt Q95ZK7); sequence looked up); partner = fbf-2 164-575 (Caenorhabditis elegans, UniProt Q09312); test = fluorescence polarisation; test system = peptide; scale = relative to: wild-type GLD-3, higher = weaker competition; endpoint = competition; value = 2 fold
Molecule = B4 (LMNB1); partner = ESPL1 (Homo sapiens, UniProt Q14674); test = proximity ligation; test system = SV40 fibroblasts; setting = overexpressed untagged WT lamin B1; scale = relative to: control cells, higher = stronger signal; endpoint = PLA signal intensity; value = 2.5 fold
Molecule = FGG (Homo sapiens, UniProt P02679); partner = ATP2B3 (Homo sapiens, UniProt Q16720); test = cross-linking MS; setting = added: DSSO; endpoint = cross-linked residues; value = K231 to K754
